Results of several laboratories.
Lines come from different studies, so protocols differ. ± gives the spread as reported.
UniProt P25929, sequence (whole entry, unmodified, looked up): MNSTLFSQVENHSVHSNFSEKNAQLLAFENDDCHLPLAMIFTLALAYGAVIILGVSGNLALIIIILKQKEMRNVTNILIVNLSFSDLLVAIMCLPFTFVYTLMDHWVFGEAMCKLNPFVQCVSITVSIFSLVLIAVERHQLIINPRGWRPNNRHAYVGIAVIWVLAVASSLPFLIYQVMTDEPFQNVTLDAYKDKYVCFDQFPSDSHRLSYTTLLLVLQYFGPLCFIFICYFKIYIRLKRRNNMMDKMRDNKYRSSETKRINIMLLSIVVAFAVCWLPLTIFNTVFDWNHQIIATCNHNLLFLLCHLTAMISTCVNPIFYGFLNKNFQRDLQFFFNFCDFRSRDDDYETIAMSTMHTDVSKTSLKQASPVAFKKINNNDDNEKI

SMILES | target or system | assay | system | conditions | how to read | endpoint | value
C[C@@H](c1ccn(Cc2cc(F)ccc2F)n1)[C@](O)(Cn1cnnn1)c1ccc(F)cc1F | Aspergillus fumigatus | growth, broth microdilution | 7544 | 48 h, 35 °C, ≥50% inhibition |  | MIC | > 64 µg/mL
Oc1c(Br)cc(Br)c2nc3cc(Cc4ccccc4)ccc3nc12 | Staphylococcus epidermidis | broth microdilution | MRSE 35984 | single representative determination |  | MIC | 0.1 µM
C[C@@H](c1ccn(Cc2ccc(I)cc2)n1)[C@](O)(Cn1cnnn1)c1ccc(F)cc1F | Aspergillus fumigatus | growth, broth microdilution | 7544 | 48 h, 35 °C, ≥50% inhibition |  | MIC | > 64 µg/mL
COc1ccc2c3c(oc2c1CC=C(C)C)-c1cc(CC=C(C)C)c(O)cc1OC3 | Shigella flexneri |  | DMST 4423 |  |  | MIC | inactive
CC(C)c1ccc(Cn2ccc([C@H](C)[C@](O)(Cn3cnnn3)c3ccc(F)cc3F)n2)cc1 | Candida parapsilosis | CLSI broth microdilution | 22019 | 24 h |  | MIC | < 0.008 µg/mL
CC[C@@H](C)[C@@H](NC(=O)[C@@H](C)NC(=O)[C@@H](CCCCN)NC(=O)[C@@H](CC(C)C)NC(=O)[C@@H](CC(C)C)NC(=O)[C@H](NC(=O)[C@@H](CCCCN)NC(=O)[C@@H](CC(C)C)NC(=O)[C@@H](C)NC(=O)[C@@H](CCCCN)NC(=O)[C@@H](CCCCN)NC(=O)[C@@H](CCCCN)NC(=O)[C@@H](C)NC(=O)[C@@H](CCCCN)NC(=O)[C@@H](CO)NC(=O)[C@@H](Cc1ccccc1)NC(=O)[C@H](NC(=O)[C@@H](CCCCN)NC(=O)[C@@H](CC(C)C)NC(=O)[C@@H](Cc1ccccc1)NC(=O)[C@@H](CO)NC(=O)[C@@H](CCCCN)NC(=O)[C@@H](Cc1c[nH]c2ccccc12)NC(=O)[C@@H](CCCCN)NC(C)=O)[C@H](C)O)[C@H](C)O)C(=O)N[C@H](CO)C(=O)N[C@H](CCCCN)C(N)=O | Acinetobacter baumannii |  | 821, Mueller-Hinton broth | 24 h, 37 °C |  | MIC | 0.7 µM
Oc1c(Br)cc(Br)c2nc3cc(C(F)(F)F)ccc3nc12 | Staphylococcus epidermidis | broth microdilution | MRSE 35984 |  |  | MIC | 0.1 µM
CC(C)=CCc1cc(-c2coc3cc(O)c(CC=C(C)C)c(O)c3c2=O)ccc1O | Shigella flexneri |  | DMST 4423 |  |  | MIC | inactive
Oc1c(Cl)cc(Cl)c2cccnc12 | Serratia marcescens | microbial growth, agar dilution | ATCC8100 |  |  | MIC | 37.4 µM
Oc1c(Br)cc(Br)c2nc3cc(Br)ccc3nc12 | Staphylococcus epidermidis | broth microdilution | MRSE 35984 |  |  | MIC | 0.3 µM
N=C(N)NCCC[C@@H]1NC(=O)[C@H](CCCCNC(=O)CNC(=O)CNC(=O)CNC(=O)CC[C@H](NC(=O)CNC(=O)CNC(=O)CNC(=O)CC[C@H](NC(=O)CN2CCN(CC(=O)O)CCN(CC(=O)O)CCN(CC(=O)O)CC2)C(=O)NCC(=O)NCC(=O)NCC(=O)N[C@@H](CCC(=O)NCC(=O)NCC(=O)NCC(=O)NCCCC[C@@H]2NC(=O)[C@@H](Cc3ccccc3)NC(=O)[C@H](CC(=O)O)NC(=O)CNC(=O)[C@H](CCCNC(=N)N)NC2=O)C(=O)NCC(=O)NCC(=O)NCC(=O)NCCCC[C@@H]2NC(=O)[C@@H](Cc3ccccc3)NC(=O)[C@H](CC(=O)O)NC(=O)CNC(=O)[C@H](CCCNC(=N)N)NC2=O)C(=O)NCC(=O)NCC(=O)NCC(=O)NCCCC[C@@H]2NC(=O)[C@@H](Cc3ccccc3)NC(=O)[C@H](CC(=O)O)NC(=O)CNC(=O)[C@H](CCCNC(=N)N)NC2=O)NC(=O)[C@@H](Cc2ccccc2)NC(=O)[C@H](CC(=O)O)NC(=O)CNC1=O [indium-111 labelled] |  |  | female athymic nu/nu mice, muscle | intravenous, 111 kBq, 1 h |  | tissue uptake | 1.14 ± 0.23 %ID/g
COc1c(CC=C(C)C)c(O)cc2c1[C@@H]1Oc3c(ccc(O)c3CC=C(C)C)[C@@H]1CO2 | Shigella flexneri |  | DMST 4423 |  |  | MIC | inactive
O=c1c2ccccc2sn1-c1cc(Br)cc(Br)c1 | Aspergillus terreus | growth, broth dilution | ATCC MYA-3633 | MIC-0 |  | MIC | 12.5 µg/mL
[3H]C([3H])([3H])Nc1ccc(-c2nc3ccc(O)cc3o2)cn1 |  | autoradiography, refers to: amyloid-β plaques | human AD brain sections | 3 nM | relative to: grey over white matter | grey to white matter binding ratio | increased
CCC(=O)NCCCCNC(=O)NCc1ccc(CNC(=O)[C@@H](CCCNC(=N)N)NC(=O)C(c2ccccc2)c2ccccc2)cc1 | Neuropeptide Y receptor type 1 (NPY1R, Homo sapiens, UniProt P25929, F286A) | antagonist | human cells |  |  | Kb | 370 nM
C=CCn1c2ccc([N+](=O)[O-])cc2c(=O)n1Cc1ccccc1 | Leishmania amazonensis |  | promastigotes, MHOM/BR/77/LTB0016 |  | relative to: CC50 macrophages over IC50 promastigotes | selectivity index | 2
CCCCCCCCCC1CC2CCCC3CC(CCCCCCCCC)NC(=N1)N23 (stereo not drawn) | Aspergillus fumigatus | fungal growth | ATCC 204305 |  |  | MIC | 23.2 µM
CC(C)=CCc1cc2c(cc1O)OC[C@H]1c3ccc(O)c(CC=C(C)C)c3O[C@@H]21 | Shigella flexneri |  | DMST 4423 |  |  | MIC | inactive
CC(=O)N[C@H](CCCCN)C(=O)N[C@H](CC(C)C)C(=O)N[C@H](CCCCN)C(=O)N[C@H](CO)C(=O)N[C@H](CC(C)C)C(=O)N[C@H](CC(C)C)C(=O)N[C@H](CCCCN)C(=O)N[C@@H](C(=O)N[C@H](CC(C)C)C(=O)N[C@H](CO)C(=O)N[C@H](CCCCN)C(=O)N[C@H](C)C(=O)N[C@H](CCCCN)C(=O)N[C@H](CCCCN)C(=O)N[C@H](CCCCN)C(=O)N[C@H](CC(C)C)C(=O)N[C@H](CC(C)C)C(=O)N[C@H](CCCCN)C(=O)N[C@@H](C(=O)N[C@H](C)C(=O)N[C@H](CC(C)C)C(=O)N[C@H](CCCCN)C(=O)N[C@H](C)C(=O)N[C@H](CC(C)C)C(=O)N[C@H](CO)C(=O)N[C@H](CCCCN)C(N)=O)[C@H](C)O)[C@H](C)O | Acinetobacter baumannii |  | 899, Mueller-Hinton broth | 24 h, 37 °C |  | MIC | 0.7 µM
CC(C)=CCc1c(O)ccc2c1O[C@H]1c3cc4c(cc3OC[C@@H]21)OC(C)(C)C=C4 | Shigella flexneri |  | DMST 4423 |  |  | MIC | inactive
CCN(CC)c1ccc2c(-c3ccc(S(=O)(=O)NCCNC(=O)CN4CCN(CC(=O)[O-])CCN(CC(=O)O)CCN(CC(=O)[O-])CC4)cc3S(=O)(=O)[O-])c3ccc(=[N+](CC)CC)cc-3oc2c1.[64Cu+2] | U-87 MG tumour model |  | host not given, blood | 4 h, tumour-bearing |  | tracer uptake | 0.7 %ID/g

SMILES | target or system | assay | system | conditions | how to read | endpoint | value
O=C1CC(c2ccc(O)cc2)Oc2cc(O)cc([O][Ga+][O]c3cc(O)cc4c3C(=O)CC(c3ccc(O)cc3)O4)c21 (stereo not drawn) | Pseudomonas aeruginosa | elastase secretion, elastin-Congo red |  | 0.08 µM, 20 h |  | inhibition | 89%
CC(C)=CCc1cc2c(cc1O)OCc1c-2oc2c(CC=C(C)C)c(O)ccc12 | Shigella flexneri |  | DMST 4423 |  |  | MIC | inactive
N#Cc1ccc2cccc(O)c2n1 | Morganella morganii | microbial growth, agar dilution |  |  |  | MIC | > 1500 µM
CC[C@@H](C)[C@@H](NC(=O)[C@@H](C)NC(=O)[C@@H](CCCCN)NC(=O)[C@@H](CC(C)C)NC(=O)[C@@H](C)NC(=O)[C@H](NC(=O)[C@@H](Cc1c[nH]cn1)NC(=O)[C@@H](CC(C)C)NC(=O)[C@H](NC(=O)[C@H](NC(=O)[C@@H](CCCCN)NC(=O)[C@H](NC(=O)[C@@H](C)NC(=O)[C@@H](CO)NC(=O)[C@@H](CCCCN)NC(=O)[C@@H](Cc1ccccc1)NC(=O)[C@H](NC(=O)[C@@H](CCCCN)NC(=O)[C@@H](CC(C)C)NC(=O)[C@@H](Cc1ccccc1)NC(=O)[C@@H](CO)NC(=O)[C@@H](CCCCN)NC(=O)[C@@H](Cc1c[nH]c2ccccc12)NC(=O)[C@@H](CCCCN)NC(C)=O)[C@H](C)O)C(C)C)[C@H](C)O)C(C)C)[C@H](C)O)C(=O)N[C@H](CO)C(=O)N[C@H](CO)C(N)=O | Acinetobacter baumannii |  | 759, Mueller-Hinton broth | 24 h, 37 °C |  | MIC | 0.7 µM
COc1ccc2c(c1CC=C(C)C)O[C@H]1c3cc(CC=C(C)C)c(O)cc3OC[C@@H]21 | Shigella flexneri |  | DMST 4423 |  |  | MIC | 128 µg/mL
CC[C@@H](C)[C@@H](NC(=O)[C@@H](C)NC(=O)[C@@H](CCCCN)NC(=O)[C@@H](CC(C)C)NC(=O)[C@@H](CC(C)C)NC(=O)[C@H](NC(=O)[C@@H](CCCCN)NC(=O)[C@@H](CC(C)C)NC(=O)[C@@H](CCCCN)NC(=O)[C@@H](CCCCN)NC(=O)[C@@H](CCCCN)NC(=O)[C@@H](CCCCN)NC(=O)[C@@H](C)NC(=O)[C@@H](CCCCN)NC(=O)[C@@H](CO)NC(=O)[C@@H](Cc1ccccc1)NC(=O)[C@H](NC(=O)[C@@H](CCCCN)NC(=O)[C@@H](CC(C)C)NC(=O)[C@@H](Cc1ccccc1)NC(=O)[C@@H](CO)NC(=O)[C@@H](CCCCN)NC(=O)[C@@H](Cc1c[nH]c2ccccc12)NC(=O)[C@@H](CCCCN)NC(C)=O)[C@H](C)O)[C@H](C)O)C(=O)N[C@H](CO)C(=O)N[C@H](CCCCN)C(N)=O | Acinetobacter baumannii |  | 649, Mueller-Hinton broth | 24 h, 37 °C |  | MIC | 0.6 µM
Oc1c(Br)ccc2cccnc12 | Morganella morganii | microbial growth, agar dilution |  |  |  | MIC | 35.7 µM
Oc1c(Br)cc(Br)c2nc3cc(Cl)ccc3nc12 | Staphylococcus epidermidis | microbial growth, broth dilution | 12228 |  |  | MIC | 0.1 µM
CCCCCCn1ccc([C@H](C)[C@](O)(Cn2cnnn2)c2ccc(F)cc2F)n1 | Aspergillus fumigatus | growth, broth microdilution | 7544 | 48 h, 35 °C, ≥50% inhibition |  | MIC | > 64 µg/mL
Oc1c(Br)cc(Br)c2nc3cc(SC(F)(F)F)ccc3nc12 | Staphylococcus epidermidis | broth microdilution | MRSE 35984 | single representative determination |  | MIC | 0.1 µM
Oc1ccccc1C1Nc2ccccc2C2=[O+][Cu-2]3([Cl])[O]c4ccccc4C=[N+]3N21 (stereo not drawn) | Mycolicibacterium smegmatis | broth microdilution | ATCC 700084 | 3 days |  | MIC | 64 µg/mL
[64Cu+2].c1cnc(CNCc2ccc(CN3CCCN4CCNCCCN(CC4)CC3)cc2)nc1 | CXCR4 |  | NOD/SCID mouse, U87 and U87-stb-CXCR4 xenografts, liver | iv, 90 min, ex vivo |  | tissue uptake | 89.2 ± 4.29 %ID/g
COc1cccc(C2Nc3ccccc3C3=[O+][Cu-2]4([Cl])[O]c5c(cccc5OC)C=[N+]4N32)c1O (stereo not drawn) | Mycolicibacterium smegmatis | broth microdilution | ATCC 700084 | 3 days |  | MIC | 64 µg/mL
C[C@@H](c1ccn(Cc2ccc(Cl)c(Cl)c2)n1)[C@](O)(Cn1cnnn1)c1ccc(F)cc1F | Aspergillus fumigatus | growth, broth microdilution | 7544 | 48 h, 35 °C, ≥50% inhibition |  | MIC | 32 µg/mL
Oc1c(Br)cc(Br)c2nc3c(C(F)(F)F)cc(C(F)(F)F)cc3nc12 | Staphylococcus epidermidis | broth microdilution | MRSE 35984 |  |  | MIC | 0.08 µM
C[C@@H](c1ccn(Cc2ccc(C(F)(F)F)cc2)n1)[C@](O)(Cn1cnnn1)c1ccc(F)cc1F | Aspergillus fumigatus | growth, broth microdilution | 7544 | 48 h, 35 °C, ≥50% inhibition |  | MIC | 64 µg/mL
O=c1c2cc([N+](=O)[O-])ccc2n(CCBr)n1Cc1ccccc1 | Leishmania amazonensis |  | promastigotes, MHOM/BR/77/LTB0016 |  | relative to: CC50 macrophages over IC50 promastigotes | selectivity index | 3
C[C@@H](c1ccn(Cc2cccc(Cl)c2F)n1)[C@](O)(Cn1cnnn1)c1ccc(F)cc1F | Aspergillus fumigatus | growth, broth microdilution | 7544 | 48 h, 35 °C, ≥50% inhibition |  | MIC | > 64 µg/mL
[64Cu+2].c1ccc(CNCc2ccc(CN3CCCN4CCNCCCN(CC4)CC3)cc2)nc1 | CXCR4 |  | NOD/SCID mouse, U87 and U87-stb-CXCR4 xenografts, lungs | iv, 30 min, ex vivo |  | tissue uptake | 14.7 ± 3.21 %ID/g
C[C@@H](c1ccn(Cc2ccc(C#N)cc2)n1)[C@](O)(Cn1cnnn1)c1ccc(F)cc1F | Aspergillus fumigatus | growth, broth microdilution | 7544 | 48 h, 35 °C, ≥50% inhibition |  | MIC | > 64 µg/mL
COc1c(NC(=O)c2ccc(NC(=O)c3ccc(NC(=O)[C@H](CC#N)NC(=O)c4ccc(NC(=O)/C(C)=C/c5ccc(O)cc5)cc4)cc3)c(OC)c2O)ccc(C(=O)O)c1O | Serratia marcescens | microbial growth | DSM30121 |  |  | MIC | > 64 µg/mL
